Published values gathered from unrelated publications.
Protocols differ between the studies behind these lines. Several values in a cell are separate wells, animals, samples, runs or records. Numbers after ± are the reported error.
BPTF bromodomain: Nucleosome-remodeling factor subunit BPTF, bromodomain (BPTF, Homo sapiens, UniProt Q12830)
LGALS9: Galectin-9 (LGALS9, Homo sapiens, UniProt O00182)

target | assay | system | conditions | Kd | Structure (SMILES)
Inositol 1,4,5-trisphosphate-gated calcium channel ITPR1, IP3-binding core (Itpr1, Rattus norvegicus, UniProt P29994) | binding, 3H-IP3 competition | – | IP3-binding core IBC | 0.432 µM | O=P(O)(O)O[C@@H]1[C@@H](O)[C@H](O)[C@H](O)[C@H](O)[C@H]1OP(=O)(O)O
SH2 domain-containing protein 3C, SH2 domain (SH2D3C, Homo sapiens, UniProt Q8N5H7) | binding, fluorescence polarization | – | phosphopeptide probe | 2.28 µM | CC(C)C[C@H](NC(=O)[C@H](C)NC(=O)[C@H](CC(C)C)NC(=O)[C@@H]1CCCN1C(=O)[C@H](Cc1ccccc1)NC(=O)[C@H](CC(N)=O)NC(=O)[C@H](Cc1ccc(OP(=O)(O)O)cc1)NC(=O)[C@H](Cc1ccc(O)cc1)NC(=O)[C@H](CC(=O)O)NC(=O)[C@H](CCCNC(=N)N)NC(=O)[C@@H](N)CO)C(=O)N[C@@H](C)C(=O)N[C@@H](CC(=O)O)C(=O)O
Receptor-interacting serine/threonine-protein kinase 3 (RIPK3, Homo sapiens, UniProt Q9Y572) | binding, competition with immobilised ligand | – | – | > 5 µM | O=C(Cc1cccc(C(F)(F)F)c1)Nc1cc(Oc2c(F)cc3nc(NC(=O)C4CC4)sc3c2Cl)ccc1F
BPTF bromodomain | bromodomain binding, PrOF NMR titration | – | pH 7.4, 5-fluorotryptophan-labelled bromodomain, 40-50 µM | 1700 µM | CC(=O)NCCCC[C@H](NC(=O)[C@H](C)NC(=O)[C@H](CCCCN)NC(=O)[C@H](C)NC(=O)[C@H](CCCCN)NC(=O)CNC(=O)[C@H](CO)NC(=O)[C@H](CC(=O)O)NC(=O)[C@H](CCCCN)NC(=O)CNC(=O)[C@H](C)NC(=O)[C@H](CCCCN)NC(=O)CNC(=O)CNC(=O)[C@H](C)NC(=O)[C@@H](N)Cc1ccc(O)cc1)C(=O)N[C@@H](C)C(=O)N[C@H](C(=O)N[C@@H](CO)C(=O)N[C@@H](CCCNC(=N)N)C(N)=O)C(C)C
Galectin-1 (LGALS1, Homo sapiens, UniProt P09382) | ligand displacement, FP | – | – | 1100 µM | CC#Cc1cc2c3c(c1C#CC)O[C@H](CO)[C@H](O)[C@@H]3OC2
BPTF bromodomain | bromodomain binding, PrOF NMR titration | – | pH 7.4, 5-fluorotryptophan-labelled bromodomain, 40-50 µM | 950 µM | CC(=O)NCCCC[C@H](NC(=O)CNC(=O)[C@H](CO)NC(=O)[C@H](CC(=O)O)NC(=O)[C@H](CCCCN)NC(=O)CNC(=O)[C@H](C)NC(=O)[C@H](CCCCN)NC(=O)CNC(=O)CNC(=O)[C@H](C)NC(=O)[C@@H](N)Cc1ccc(O)cc1)C(=O)N[C@@H](C)C(=O)N[C@@H](CCCCN)C(=O)N[C@H](C(=O)N[C@@H](CCCCNC(C)=O)C(=O)N[C@@H](C)C(=O)N[C@H](C(=O)N[C@@H](CO)C(=O)N[C@@H](CCCNC(=N)N)C(N)=O)C(C)C)[C@@H](C)O
Peptidyl-prolyl cis-trans isomerase NIMA-interacting 1, PPIase domain (PIN1, Homo sapiens, UniProt Q13526) | binding, NMR titration | isolated PPIase domain | pH 6.8, 25 °C | 230 ± 42 µM | CC(C)C[C@H](NC(=O)CNC(=O)[C@H](CC(C)C)NC(=O)[C@@H](N)CCC(=O)O)C(=O)N[C@H](C(=O)N1CCC[C@H]1C(=O)N[C@@H](COP(=O)(O)O)C(=O)N1CCC[C@H]1C(=O)N[C@@H](C)C(=O)N[C@@H](CO)C(=O)N[C@@H](CC(C)C)C(=O)N[C@@H](Cc1c[nH]c2ccccc12)C(=O)N1CCC[C@H]1C(=O)N1CCC[C@H]1C(=O)N1CCC[C@H]1C(=O)N1CCC[C@H]1C(=O)N[C@@H](CO)C(=O)N1CCC[C@H]1C(=O)N[C@@H](C)C(=O)N1CCC[C@H]1C(=O)N[C@@H](CO)C(=O)N[C@@H](CO)C(=O)N[C@H](C(=O)N[C@@H](CCCCN)C(=O)O)[C@@H](C)O)C(C)C
Rho guanine nucleotide exchange factor TIAM1, PDZ domain (TIAM1, Homo sapiens, UniProt Q13009) | fluorescence anisotropy | – | 25 °C, PDZ domain | 33.4 ± 1.9 µM | C[C@H](NC(=O)[C@H](Cc1ccc(O)cc1)NC(=O)[C@H](Cc1ccccc1)NC(=O)[C@H](CCC(=O)O)NC(=O)[C@H](CCC(=O)O)NC(=O)[C@H](CCC(N)=O)NC(=O)[C@H](CCCCN)NC(=O)[C@H](CC(=O)O)NS(=O)(=O)c1cccc2c(N(C)C)cccc12)C(=O)O
Dihydroxy-acid dehydratase, chloroplastic (DHAD, Arabidopsis thaliana, UniProt Q9LIR4) | microscale thermophoresis | – | – | 1360 µM | O=C(O)C1Oc2cc(F)ccc2N(Cc2ccccc2)C1=O (stereo not shown)
G-quadruplex DNA myc22 | fluorimetric titration | – | pH 7.2, 100 mM KCl, with: Cy5-labelled DNA 2 nM | 0.0139 ± 0.0014 µM | C[n+]1ccc(/C=N/NC(=O)c2cncc(C(=O)N/N=C/c3cc[n+](C)c4ccccc34)n2)c2ccccc21
Cytochrome bc1 complex (Lucilia sericata, UniProt A7DT80) | binding, MS saturation binding | Lucilia sericata, submitochondrial particles | – | 0.015 µM | CCc1nc2cc(C)c(Oc3ccc(OC(F)(F)F)cc3)cc2c(O)c1C
Cellular tumor antigen p53 (TP53, Homo sapiens, UniProt P04637, M133L/N239Y/N268D/V203A/Y220C) | – | – | 20 °C, protein 75 µM | ~800 µM | O=C(O)c1cc(I)cc(I)c1O
Proline--tRNA ligase (Plasmodium falciparum, UniProt Q8I5R7) | binding, MST | – | – | 0.222 µM | Cc1cc(N2CCC(CO)(C3CC3)C2=O)cc(C(=O)NCc2cc(F)cc(-c3cnn(C)c3)c2)n1 (stereo not shown)
LGALS9 | cell-free assay, FP | – | – | > 1000 µM | COc1ccc(Cc2cc3c4c(c2)O[C@H](CO)[C@H](O)[C@@H]4OC3)cc1
Baculoviral IAP repeat-containing protein 5 (BIRC5, Homo sapiens, UniProt O15392) | isothermal titration calorimetry | – | pH 7.8, 25 °C, with: histone H3 peptide | 61.7 ± 8.5 µM | C[C@H](N)C(=O)N[C@@H](CCCNC(=N)N)C(=O)N[C@H](C(=O)N[C@@H](CCCCN)C(=O)O)[C@@H](C)OP(=O)(O)O
HIV-1 SL3 RNA stem-loop | binding, ESI-FTMS titration | – | pH 7.5 | 88.2 ± 6.6 µM | CCOc1ccc(-c2nc3cc(-c4nc5cc(N6CCN(C)CC6)ccc5[nH]4)ccc3[nH]2)cc1
Bromodomain-containing protein 4, BD1 (BRD4, Homo sapiens, UniProt O60885) | binding, SPR | – | – | 35 µM | CCNC(=O)c1ccc(CNC(=O)Cn2cc(-c3c(C)noc3C)cn2)cc1
Unconventional myosin-Va (Gallus gallus, UniProt Q02440, D297C/G292C/I296C/S293C/V295G) | binding, ligand, stopped-flow FRET | – | 25 °C, with: 4 mM EDTA | 2.55 ± 1.17 µM | CNc1ccccc1C(=O)O[C@H]1C[C@H](n2cnc3c(N)ncnc32)O[C@@H]1COP(=O)(O)OP(=O)(O)O
Matrix metalloproteinase-14 (MMP14, Homo sapiens, UniProt P50281) | binding, FP | – | – | ~1.8 µM and 1.8 µM | C#CCN(CC(=O)N(CCOC)CC(=O)N(CCOC)CC(N)=O)C(=O)CN(CCOC)C(=O)CN(CC1CCCC1)C(=O)CN(CCc1ccc(C(F)(F)F)cc1)C(=O)C(C)N(CCCOC)C(=O)CNCc1ccc(OC)c(OC)c1 (stereo not shown)
LGALS9 | cell-free assay, FP | – | – | > 2000 µM | CCCc1cc2c3c(c1CCC)O[C@H](CO)[C@H](O)[C@@H]3OC2
Fab B11 antibody (human) | binding, biolayer interferometry | – | with: biotinylated peptide on tips | 0.02 ± 0.001 µM | CC[C@H](C)[C@H](NC(=O)[C@H](CCCCN)NC(=O)[C@H](CCCCN)NC(=O)[C@@H](NC(=O)[C@H](CCC(=O)O)NC(=O)[C@H](CCC(=O)O)NC(=O)[C@H](CCC(=O)O)NC(=O)[C@H](CO)NC(=O)[C@H](CC(C)C)NC(=O)[C@H](CC(=O)O)NC(=O)[C@H](CC(C)C)NC(=O)CNC(=O)[C@H](CCCNC(=N)N)NC(=O)[C@H](CC(C)C)NC(=O)[C@H](CO)NC(=O)CNC(=O)CNC(=O)CNC(=O)CCCC[C@@H]1SC[C@@H]2NC(=O)N[C@@H]21)C(C)C)C(=O)N[C@@H](CC(C)C)C(=O)N[C@@H](CC(=O)O)C(=O)N[C@@H](CCC(=O)O)C(=O)N[C@@H](C)C(=O)N[C@H](C(=O)N[C@@H](CCCCN)C(=O)N[C@@H](CC(=O)O)C(=O)O)C(C)C
ERO1-like protein alpha (Homo sapiens, UniProt Q96HE7) | binding, biolayer interferometry | – | – | 1.1 µM | Cn1cnnc1Sc1c2c(c(C#N)c3nc4ccccc4n13)CCCC2
p-hydroxyphenylacetate 3-hydroxylase, reductase component (C1-hpah, Acinetobacter baumannii, UniProt Q6Q271) | ITC | – | pH 7, with: 1 mM FMN | 220 ± 13.4 µM | O=C(O)Cc1ccccc1O
Fab B11 antibody (human) | binding, biolayer interferometry | – | with: biotinylated peptide on tips | 2.4 ± 0.26 µM | CC[C@H](C)[C@H](NC(=O)[C@H](CCCCN)NC(=O)[C@H](CCCCN)NC(=O)[C@@H](NC(=O)[C@H](CCC(=O)O)NC(=O)[C@H](CCC(=O)O)NC(=O)[C@H](CCC(=O)O)NC(=O)[C@H](CO)NC(=O)[C@H](CC(C)C)NC(=O)[C@H](CC(=O)O)NC(=O)[C@H](CC(C)C)NC(=O)[C@H](C)NC(=O)[C@H](CCCNC(=N)N)NC(=O)[C@H](CC(C)C)NC(=O)[C@H](CO)NC(=O)CNC(=O)CNC(=O)CNC(=O)CCCC[C@@H]1SC[C@@H]2NC(=O)N[C@@H]21)C(C)C)C(=O)N[C@@H](CC(C)C)C(=O)N[C@@H](CC(=O)O)C(=O)N[C@@H](CCC(=O)O)C(=O)N[C@H](C(=O)N[C@H](C(=O)N[C@@H](CCCCN)C(=O)N[C@@H](CC(=O)O)C(=O)O)C(C)C)[C@@H](C)CC
(CCUG)6 RNA | binding, ITC | – | 25 °C, binding site 2 | 478 ± 85 µM | CN(C)CCNC(=O)c1cccc2c(NCCCCc3c(N)nc(N)nc3N)c3ccccc3nc12

Repeated from above:
target | assay | system | conditions | Kd | Structure (SMILES)
LGALS9 | cell-free assay, FP | – | – | > 1000 µM | COc1ccc(Cc2cc3c4c(c2)O[C@H](CO)[C@H](O)[C@@H]4OC3)cc1
Baculoviral IAP repeat-containing protein 5 (BIRC5, Homo sapiens, UniProt O15392) | isothermal titration calorimetry | – | pH 7.8, 25 °C, with: histone H3 peptide | 61.7 ± 8.5 µM | C[C@H](N)C(=O)N[C@@H](CCCNC(=N)N)C(=O)N[C@H](C(=O)N[C@@H](CCCCN)C(=O)O)[C@@H](C)OP(=O)(O)O
HIV-1 SL3 RNA stem-loop | binding, ESI-FTMS titration | – | pH 7.5 | 88.2 ± 6.6 µM | CCOc1ccc(-c2nc3cc(-c4nc5cc(N6CCN(C)CC6)ccc5[nH]4)ccc3[nH]2)cc1
